Assay results of several laboratories.
Each numbered part is a random draw from the data of one study; scales do not carry over between parts. Substitutions count along the parent as printed.

Study 1
Target: ABI1, truncated, D143A, DHFR fusion (Arabidopsis thaliana)
Method: DHFR PCA, deep sequencing
Medium: yeast
Notes: methotrexate growth selection, single substitutions
Added: (+)-ABA 0.0091 µM
Relative to: wild-type fitted maximum
Reading: higher = stronger binding
Starting sequence: PYL1, truncated, DHFR fusion (Arabidopsis thaliana); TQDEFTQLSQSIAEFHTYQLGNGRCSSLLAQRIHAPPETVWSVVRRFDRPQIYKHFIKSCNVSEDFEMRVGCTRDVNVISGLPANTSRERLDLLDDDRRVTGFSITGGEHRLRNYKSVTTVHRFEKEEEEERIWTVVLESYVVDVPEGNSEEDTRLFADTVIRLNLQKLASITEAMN; partner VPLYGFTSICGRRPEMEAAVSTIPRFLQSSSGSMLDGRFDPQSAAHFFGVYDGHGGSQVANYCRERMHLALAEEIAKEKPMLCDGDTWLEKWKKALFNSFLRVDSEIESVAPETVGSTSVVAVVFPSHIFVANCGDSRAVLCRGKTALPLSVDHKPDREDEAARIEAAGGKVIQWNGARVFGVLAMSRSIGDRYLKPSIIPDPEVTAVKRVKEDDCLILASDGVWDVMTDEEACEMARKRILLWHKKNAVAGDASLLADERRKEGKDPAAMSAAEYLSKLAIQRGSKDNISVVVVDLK
Change	relative binding score [%]
G23D	7.32
M176K	10.2
H55Y	12.4
K168H	22.2
R111W	1.44
R32T	37.8
L82H	25.5
Q31C	1.28

Study 2
Target: RNA binding protein fox-1 homolog 2, RRM domain, GST-SBP tag (RBFOX2, Homo sapiens, UniProt O43251-10, residues 100-194)
Method: RNA Bind-n-Seq
Form: RNA
Medium: in vitro
Tested at: 365 nM
Notes: natural RNA segment, single round, ends assumed
Relative to: no-protein control
Reading: higher = stronger binding
All sequences stand within: GGGAGUUCUACAGUCCGACGAUC … UGGAAUUCUCGGGUGCCAA
Residues (chain): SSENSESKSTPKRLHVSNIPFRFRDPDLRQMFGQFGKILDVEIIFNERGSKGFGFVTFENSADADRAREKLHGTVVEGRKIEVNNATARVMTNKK
Strand	RBNS enrichment (R)
CAAGACUGACUAGCUCUCUUUAGCCCUCUGGUGAUUCCUUCACUAUCAUGUCAACCUGGCUUAUCAUUGUGAGCCCCUGAGGUCUUUCGGGUUCUCUGUAAUACUCAAGU	0.281
CUUUUUUUAAAAAAGAGAGAAAAGAAAAACUAGUUGGUGGACAUGGUGGGUGACACGCCUUUAAUCUCAGCACUUGGGAGGAAGAGGCAGGUGAAUCUCUGGGUUAGGAC	0.607
UUAUCUGGACAUGAUUUUGCUAUGCAGUUGUGAUAAUAAAAAUUCCAGCUCCUCAGGUUUAACCUCUAAGUUGUGGAUGGAGACUAUUUAAAGUACACAUGAUGUAUUCA	0.601
UGCCAAGGCUCUUGGCACAGGACUCACAUCUGGGCCACUCAGCUUGACCGAAGGCUGUGUGUGAAAGGGGAGAAAGACGAGACUUCCAGGCAGGGCUAUUCUUUUUAUUU	0.319
CCCCCAGGUCAGGUCCGCGCCCUUUAAAUUGGCCGCUUGGCUUUUGCCUUUGGUCCUCUUGGACAGAGAGCAGGCUCAGGCCAUUGACAUCACAGUUCUUCCUUUUAACU	0.275
CUUCCUCAACUUAGUGGCAAAGCCCUGUAUGGAUACUUGUAGGUGCGGGUGAUCCUCAAGGCCAUGCUGCUUUCUGAGUUGUUCUUGUUGCUUUGUUCAUAAUGUGGUUA	0.47
AAAACGUUGUAAGAAGGCAAUAUUAAUCUAGUCACCAUGUACGCACUCUGGAUGGAGGUUCUACAGAGCUGUUGAUUGGUCAACUACUUCUCUUACAUUGUUGACUCAUG	0.432
AACUAGGCAGGCAAUGGCUCCAGUGCCCUCCCUCUGUUCCCUGGACCACCACCCCACGUAGCUGCUCACACCAGCCUCCGGGUGCCUCCCUCUGCUUGUACAGAGCCCAU	0.246
GGAGUGGCCACACCGCCUGUUGGAGAGGUCACUGAAAAAGACAUCACUGCAGAAGCAACUCCUGCACUCGCCCAGACUUUACCAGGGGGCAAAGAUGCCCAUGACGACAU	0.368
GUGCUUCCUUGACCUCUGACCUCUAGGCUCAUCUAAGCCUUGUGGGGAAAGGGAAGAGAUGGGGACAGCUGGUCCCAGGAGAUGCAGGCCCUUGCCUUAGGAUCCUGGUG	0.331
ACAAAGGGUUCCAGGCUCCAGAGAGGAGAUCACCUCGACGCCAAUGUCACCGAGGCACCUGUCUCAGCUAGGACUCAGUUUCUCUUUCUGAGGUCGGCGUUAUUUCCUCU	0.206
AACCACAUUAGCACCCUGCCAGCCUACCAGCCUCUCUGUGCACAGCUUCUAAUGUUAUGAUCUAGCUAGAUUUUUAUUUAAAAUAUGAAAAACUGCUUUUCCCAAGACGU	0.349

Study 3
Target: CCNA2, cyclin fold, Cln2 fusion (human)
Method: yeast growth competition, sequencing
Medium: yeast
Notes: strong parent motif
Relative to: not given
Reading: higher = stronger binding
Starting sequence: CDT1 docking peptide (human); PPARRRLRLSVDE; partner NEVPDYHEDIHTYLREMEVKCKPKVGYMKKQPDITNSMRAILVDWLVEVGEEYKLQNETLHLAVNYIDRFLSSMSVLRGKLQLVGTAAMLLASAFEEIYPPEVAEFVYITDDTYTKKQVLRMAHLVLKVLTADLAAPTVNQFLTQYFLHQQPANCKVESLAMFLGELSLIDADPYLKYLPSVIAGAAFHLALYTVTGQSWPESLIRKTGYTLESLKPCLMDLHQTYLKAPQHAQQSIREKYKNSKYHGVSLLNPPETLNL
Change	normalised enrichment score
R5A	0.717
D12A	5.45
R8A	4.5
S10A	3.7
E13A	5.01
P1A	3.58
R5K	1.04

Study 4
Target: Interferon regulatory factor 7, full length, phosphomimetic (IRF7, Homo sapiens, UniProt Q92985, residues 1-503, S101K/S471D/S472D/S475D/S476D/S477D/S483D/S484D/S487D)
Method: protein-binding microarray
Form: double-stranded DNA, one strand shown
Medium: in vitro
Tested at: 250 nM
Notes: 60-bp whole probe
Added: salmon DNA 0.4 mg/ml
Relative to: random background probes
Reading: higher = stronger binding
All sequences stand within: GCCTAGCAC … GTCTTGATTCGCTTGACGCTGCTG
Construct (chain): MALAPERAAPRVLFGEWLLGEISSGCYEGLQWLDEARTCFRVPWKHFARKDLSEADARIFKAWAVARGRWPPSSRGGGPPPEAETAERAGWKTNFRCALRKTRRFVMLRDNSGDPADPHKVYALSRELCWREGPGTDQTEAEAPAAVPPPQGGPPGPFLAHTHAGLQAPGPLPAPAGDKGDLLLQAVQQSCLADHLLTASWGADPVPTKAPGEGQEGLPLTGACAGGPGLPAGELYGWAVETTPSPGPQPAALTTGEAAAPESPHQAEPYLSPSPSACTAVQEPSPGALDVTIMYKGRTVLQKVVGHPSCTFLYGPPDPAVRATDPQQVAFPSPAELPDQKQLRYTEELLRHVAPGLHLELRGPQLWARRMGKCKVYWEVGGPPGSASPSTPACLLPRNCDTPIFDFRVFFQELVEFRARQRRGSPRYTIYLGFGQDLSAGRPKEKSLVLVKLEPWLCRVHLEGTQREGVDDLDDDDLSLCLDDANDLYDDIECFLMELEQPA
Strand	log fluorescence
TTAGGTATCCTCCTCCTTTAGTGCTAG	0.0382 z-score
GCCGATATCGGGACTGGAGACGTGCTA	-0.0136 z-score
TTAGATTCCAGTTTAGATTAGTGCTAG	2.37 z-score
TTAGGAATGGACACTGGGTTAGTGCTA	-0.423 z-score
GACGGTTTCGGTTTCGGGATGTGCTAG	13.9 z-score
TTAGGACTGGACACTGGGTAAGTGCTA	-0.582 z-score
GACGGTATCGGGACCGGGGACGTGCTA	-0.256 z-score
GACGAACTGGGGTTCCGAGACGTGCTA	-0.357 z-score
GACGGTCTCCTTATCCTGAGGTGCTAG	0.0513 z-score
GACGGTATGGGTATCGGGACGTGCTAG	-0.163 z-score

Study 5
Target: Histone acetyltransferase KAT6A, winged helix 2, GST fusion (KAT6A, Homo sapiens, UniProt Q92794, residues 85-181)
Method: protein binding microarray
Form: double-stranded DNA, one strand shown
Medium: in vitro
Tested at: not given
Notes: 8-mer, flanks averaged, mean of 2 arrays, mostly near background
Relative to: not given
Reading: higher = stronger binding
Target sequence (chain): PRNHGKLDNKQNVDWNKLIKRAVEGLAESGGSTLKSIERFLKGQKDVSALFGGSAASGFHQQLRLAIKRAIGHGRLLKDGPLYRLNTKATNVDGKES
Strand	E-score
AGTGATAC	-0.0126
ATGTGGAA	-0.095
TAAATGGA	-0.0603
AGTGCGAG	0.0798
CAAATTGG	-0.0836
GTACAAAA	-0.0799
ACGTGTTC	-0.174
GTGGGAGA	0.00536
AGACAGGA	0.178
ATTGTACA	-0.158
CCTTTGAA	0.0353
ATGTAGTC	-0.0974
AGCTTGTG	0.0438
CGGAAAAG	-0.0896
AACGGACG	-0.0369
GCGGCCGA	0.0595
TAAACTAA	0.138
TACCAATA	-0.0672
CCGATGAC	0.0366
GGGGTTCA	-0.199
ACAAAGGT	-0.105
ATACTCGC	-0.0428
CATAGGAA	-0.12
ACCGTTTA	-0.116
ACCGCTAT	-0.0174

Study 6
Target: Prothrombin, mature alpha-thrombin (F2, Homo sapiens, UniProt P00734)
Method: aptamer microarray, sandwich
Form: DNA with 2'F-ANA
Medium: in vitro
Tested at: 200 nM
Notes: whole 15-mer aptamer, many near background
Added: Cy3 exosite-II aptamer, 400 nM
Reading: higher = stronger binding
Strand: GGTTGGTGTGGTTGG
Modification	mean fluorescence intensity [a.u.]
2'F-ANA at 1 4 5 6 11 14 15	46.6
2'F-ANA at 1 3 4 10 14	49.5
2'F-ANA at 3 11 14 15	519
2'F-ANA at 2 5 6 8 9 12 15	155
2'F-ANA at 2 6 8 10 13	104
2'F-ANA at 2 4 6 12 14 15	119
2'F-ANA at 2 3 8 9 10 15	429
2'F-ANA at 2 3 6 7 8 9 10 11 12 13 14	251
2'F-ANA at 1 3 6 10 13	72.5
2'F-ANA at 3 8 9 10 11 12 14 15	384
2'F-ANA at 1 3 6 7 10 11 13	71.4
2'F-ANA at 2 7 11 12 13 14	179
2'F-ANA at 2 3 5 9 10 14	48.5
2'F-ANA at 2 4 6 9 10 11	79.6
2'F-ANA at 2 3 6 7 8 11 12	1020
2'F-ANA at 3 7 8 9 10 14 15	421

Study 7
Target: ATF7, bZIP domain (human)
Method: DHFR protein complementation
Medium: yeast
Notes: single substitutions, most at no-binding floor
Relative to: wild-type JUN-FOS pair
Reading: higher = stronger binding
Starting sequence: JUN, bZIP domain (human); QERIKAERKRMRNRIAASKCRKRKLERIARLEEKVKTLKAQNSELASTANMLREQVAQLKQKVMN; partner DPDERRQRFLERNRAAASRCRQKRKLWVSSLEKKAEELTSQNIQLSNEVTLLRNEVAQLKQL
Change	binding fitness [natural log]
A49H	-1.38
A29P	-1.3
L31F	-1.36
L38H	-1.47
N42D	-1.28
N42H	-1.12
E32F	-1.3
R30V	-0.796
R30E	-0.559
E33T	-1.15
V56T	-1.37
